# Published values of several laboratories.
# Protocols differ between the studies behind these lines.
# Target: Aurora kinase A (AURKA, Homo sapiens, UniProt O14965)
SMILES,assay,conditions,scale,quantity,result
O=C(Cc1ccc(OCc2ccccc2)cc1)NC1(C(=O)O)CCN(C(=O)c2ccc(-c3cccc(Cl)c3)cc2)CC1,"enzyme activity, inhibitor",10 µM,,activity vs control,71%
CN1CCN(Cc2ccc(NC(=O)c3cccc(C#Cc4cnc(N)c5ncccc45)c3)cc2C(F)(F)F)CC1,"cell-free assay, competition with immobilised ligand",0.5 µM,,remaining binding,64%
Cc1cnc2nc1Nc1cccc(c1)COC/C=C/COCc1cc(ccc1OCCN1CCOCC1)N2,binding,0.1 µM,,remaining binding,65%
CCN1CCN(Cc2ccc(C(=O)Nc3ccc(C)c(NCc4cnc5[nH]ccc5c4OC)c3)cc2C(F)(F)F)CC1,"binding, competition with immobilised ligand",1 µM,,remaining binding,86%
Nc1ncc(-c2cc(-c3cnn(CC(F)(F)F)c3)ncc2F)nc1C(=O)NC1CNCC(F)C1 (centres unmarked),enzyme activity,1 µM,relative to: DMSO control,remaining activity,78.3%
CNC1C[S+]2CC[S+]3CC[S+](C1)[Ru-4]321([N]=C=S)[n]2c3ccc(OC)cc3c3c4c(c5cc(F)c[n+]1c5c32)C(=O)NC4=O (centres unmarked),KinomeScan,0.1 µM,relative to: untreated,remaining binding,84%
COc1cc(Nc2nccc(-c3cnn4nc(OC)ccc34)n2)cc(C(F)(F)F)c1,"binding, competition with immobilised ligand",1 µM,,remaining binding,71%
Cc1[nH]nc2c1N=C(c1ccccc1Cl)c1cnc(N3CCOCC3)cc1N2,"enzyme activity, inhibitor",0.5 µM,,inhibition,> 99%
CCn1cc(C(=O)O)c(=O)c2c(N)c(F)c(NC3CCCCC3)cc21,kinase activity,"0.1 µM, added: ATP at Km",,inhibition,3.7%
C=CC(=O)N1Cc2nc(-c3cc(-c4cc(Cl)cnc4Cl)c(F)cc3F)n(-c3ccncn3)c2C1,"cell-free assay, inhibitor",1 µM,,inhibition,6.2%
CC(C)=CC1OC(C)(C)C2C=C3C(=O)C(Cl)=CC(O)C3C3C(O)C4OC4C(=O)C132 (centres unmarked),"cell-free assay, competition with immobilised ligand",10 µM,,remaining binding,100%
COc1ccc(NC(=O)Nc2ccc3c(c2)C(=O)N(C(C)CO)CC(C)C(CN(C)Cc2ccc4c(c2)OCO4)O3)cc1 (centres unmarked),"binding, competition with immobilised ligand",10 µM,,remaining binding,22%
CNC(=O)C1CCN(c2cc(C)c(F)cc2NC(=O)c2ccc(-c3cc(O)ccc3C)c(C)c2)CC1,"binding, competition with immobilised ligand",1 µM,,remaining binding,100%
Cc1ccc(-c2c(/C=C(\C#N)C(=O)NC(C)C)n(CCCO)c3ncnc(N)c23)cc1,"cell-free assay, competition with immobilised ligand",1 µM,,remaining binding,82%

# Excerpt of the above:
SMILES,assay,conditions,scale,quantity,result
CC(C)=CC1OC(C)(C)C2C=C3C(=O)C(Cl)=CC(O)C3C3C(O)C4OC4C(=O)C132 (centres unmarked),"cell-free assay, competition with immobilised ligand",10 µM,,remaining binding,100%
COc1ccc(NC(=O)Nc2ccc3c(c2)C(=O)N(C(C)CO)CC(C)C(CN(C)Cc2ccc4c(c2)OCO4)O3)cc1 (centres unmarked),"binding, competition with immobilised ligand",10 µM,,remaining binding,22%
